Experimental data collected from several papers.
Numbered parts are unrelated; each lists some results of a single study. Substitutions count along the parent as printed.

Block 1
Target: RNA binding protein fox-1 homolog 2, RRM domain, GST-SBP tag (RBFOX2, Homo sapiens, UniProt O43251-10, residues 100-194)
Method: RNA Bind-n-Seq
Form: RNA
Sample: in vitro
Concentration: 365 nM
Notes: natural RNA segment, single round, ends assumed
Baseline: no-protein control
Reading: higher = stronger binding
All sequences stand within: GGGAGUUCUACAGUCCGACGAUC … UGGAAUUCUCGGGUGCCAA
Construct (chain): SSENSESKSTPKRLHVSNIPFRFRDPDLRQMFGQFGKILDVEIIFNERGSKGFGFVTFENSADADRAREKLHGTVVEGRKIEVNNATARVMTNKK
Oligonucleotide | RBNS enrichment (R)
UUGGGGUCAAGGAACAUUUCAGUGGGUUUUUGCCCCAUCUCCUCCUCCCGUCCCCUGCUCAUGGGACAUGUUAUCUUUCUUAAUUCUCCUGCCGCCGCCGCCACCACCAC | 1.01
GUACAAAUCAGCACCCACAUCCCCUUUCUUGACAAAUGAUUUUUCUAGAGAACUAUGUUCUUCCCUGACUUUAGGGAAGGUGAAUGUGUUCCCGUCCUCCCGCAGUCAGA | 0.551
CCCAGAGGGACUAUGAUCUGAUGGCCUCUAGGUGUUGUUUUGUGCAAUAUACAGCCCCAGGUAGGGAGGGGAGAGUAUGAGGAGGGUGACUGGCAGCUUCUCCUCCAGAC | 1.25
CUAAGCGCUGACCGUGAACUCUGCCCUUGAUGGCGCUAAGCUGUCUGGACAGUGCGGUUACAAGCAUUAGUGAGUGUCCUGCUCCACGCCUGUGUGAACCAGGCACAGGA | 0.222
CCCCAACUACAGCUGGAGACGGGGCCAGCUCGGCGGCCUGCUGGUCCUCUGCUUGCUGGAACAUUCUAACAUUUACACUUUUGUUAUAAGCUAUUUAAAACCAGUAAGGA | 0.567
CCAUGAGGUUGAGGUUACCCUGGCUUAUGGAGCGACAGCCUGUCUCAGAGAAACAAGAGCACAAGUAAAUGAACACAAAUCCUUCCUUAGGACCACUGCACCACAGGCCU | 0.415
UGUAGACACUCUCCCAGCCAGCAGCGCUCCUGCUUGUCCACCUGAGCAACGCAAUCCACUCCAUGCUGACUGGCACCAGACAGUGAGCGGCUCAGGAGUGAUGGAAAGCG | 0.288
UCACAAGCUGCCUCUAUUUCAGUUCGCUCACCUCUUUGCCCUGUCCCCAGUAUUGAUCCCCCACCCUUUUUUGAGACAGGGCAUCCCAGCUGGCGACAACCCUCCUUUCU | 0.645
CACCGGUGUCCUGUUCCUGCCACAUGGAGCUUGACUUCAUGCCAGCUAUAAUCUCCCCUGCCUUCCUUUAAUCCCAAUUUCCCCUGCUCACUCUUCCACAGAUAUAAAGA | 0.699
UUGUUACUGAAAACAAAGUCUUGUCUAGCACCGUGAGAAUCAUUAAAAAUAAAAUGGCAAUUUUAGCACAAUGUUAAGAAAAUGCCCUACUUCAUUACCGCACUUUCUUG | 0.481
UCAGGUGAGGUCGCUACCCCUGGAGGUCUGGCAUAAGGGCCCCACCCUCAGGUCUCCUACACUGGCCCCAUUUUACUUUGGGGUCCAAGGACAGGAUGGUCAACAGGGCA | 0.242
GCAAGAGAUAAAAACCAACAAAACCUAACCUGGUGACCACAUGUCUGUGACUCCAUGUACUCAUCCCAAGGUUGUAUCUGGAGCCUGUGGGCUGGCUAGAUGAUAUAGGU | 1.39

Block 2
Target: Ras GTPase-activating protein-binding protein 1, C-terminal RGG region (G3BP1, Homo sapiens, UniProt Q13283)
UniProt Q13283, sequence (whole entry, looked up): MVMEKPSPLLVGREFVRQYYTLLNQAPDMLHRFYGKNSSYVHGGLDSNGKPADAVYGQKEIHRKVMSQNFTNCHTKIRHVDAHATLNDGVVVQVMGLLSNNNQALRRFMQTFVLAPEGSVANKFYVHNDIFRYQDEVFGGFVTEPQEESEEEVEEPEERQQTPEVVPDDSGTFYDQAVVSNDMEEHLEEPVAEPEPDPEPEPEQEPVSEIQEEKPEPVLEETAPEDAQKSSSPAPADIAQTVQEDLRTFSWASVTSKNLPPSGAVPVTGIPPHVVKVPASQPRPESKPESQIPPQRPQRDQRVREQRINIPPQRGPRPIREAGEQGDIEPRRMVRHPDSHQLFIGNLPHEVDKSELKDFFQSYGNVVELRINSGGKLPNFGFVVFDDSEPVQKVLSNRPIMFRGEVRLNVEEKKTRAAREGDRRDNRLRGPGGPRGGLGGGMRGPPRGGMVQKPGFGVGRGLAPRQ
Method: RNA Bind-n-Seq
Form: RNA
Sample: in vitro
Concentration: 1 µM
Notes: whole 134-nt RNA, ends assumed
Added: 150 mM KCl
Baseline: input library
Reading: higher = stronger binding
All sequences stand within: GGGAGUUCUACAGUCCGACGAUC … UGGAAUUCUCGGGUGUCAAGG
Oligonucleotide | log2 enrichment
UGUGAGCGGAGCCUGGAGGAGCUGCUGCACUACGUGGGCCAGCUGCGGGCUGAGCUGGCCAGCGCAGGUGGGUGGCCACCCUUGCAAGUG | 0.038
AGUCCUGUGCUACACAUCGUAUGUACCGAAUCGGAAAAAGGAAAAAGGGAAAAAGGGAAAGUAUUAUGUUACGCCGUUCGGAUCUGCACU | -1.84
ACCAUGCAGGUGGGCAUCUUUGGGAAGUGGGGCAAGGGGGGGAUAGGGAGGGGGGUAACACUUUGGGAAAAAGUGGUCCCAGGUCGUUUC | -1.16
CUCAAGUCCUGUGCUACACAUCGUAUGUACCGAAUCGGGGCGGGGCGGCGGGGAAAGUAUUAUGUUACGCCGUUCGGAUCUGCACUUCCA | 0.503
CACAGACAACACGCACCCACACAGACACAGAGGGAAGGGGUUGGGAUGGGGACAGGGUGCACAGCAGGGCGGGGUAGGGCCCCAGCCCCU | -0.927
AAGUCCUGUGCUACACAUCGUAUGUACCGAAUCGGUUUUUUUGGUUUUUGGUUUGGAAAGUAUUAUGUUACGCCGUUCGGAUCUGCACUU | -1.77
GUCCUGUGCUACACAUCGUAUGUACCGAAUCGGGCCCCCGGCCCCCGGGGCCCCCGGGGAAAGUAUUAUGUUACGCCGUUCGGAUCUGCA | -1.92
CCUCAAGUCCUGUGCUACACAUCGUAUGUACCGAAUCGGGGAGGGAGGGAGGGAAAGUAUUAUGUUACGCCGUUCGGAUCUGCACUUCCA | 2.84
CAUCCUUUGGGCCCCUCAAGGCCUUCAACCUGGUCAAGGACAGUGCCACGGGGCUCUCCAAGGGCUACGCCUUCUGUGAGUACGUGGACA | -1.93
UGGCCCUGGGGGCAUGCGGGGAGGAAGAGGUGGCCUCAUGGAUCGUGGUGGUCCCGGUGGAAUGUUCAGAGGUGGCCGUGGUGGAGACAG | 2.17

Block 3
Target: Histone acetyltransferase KAT6A, winged helix 2, GST fusion (KAT6A, Homo sapiens, UniProt Q92794, residues 85-181)
Method: protein binding microarray
Form: double-stranded DNA, one strand shown
Sample: in vitro
Concentration: not given
Notes: 8-mer, flanks averaged, mean of 2 arrays, mostly near background
Baseline: not given
Reading: higher = stronger binding
Target sequence (chain): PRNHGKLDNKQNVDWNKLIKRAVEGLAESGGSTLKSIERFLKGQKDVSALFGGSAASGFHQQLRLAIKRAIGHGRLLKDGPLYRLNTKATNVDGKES
Oligonucleotide | E-score
CCAGTTAG | -0.078
AATAATAG | -0.116
CAAGTTCA | 0.109
GTACCGTA | -0.16
CTAGAATC | -0.038
GAAAGAGA | 0.0744
GCAGGACC | -0.0963
CTGACGCA | -0.0699
AGCCCGAA | 0.105
AACAGAAT | -0.0929
GGGAATCA | -0.0374
TAACTTGA | -0.0109
GGGTAATA | 0.147
AGCCGTAA | -0.0199
CACGTGAA | -0.199
ATCGCGTA | -0.108
TCGCTCCA | 0.0172

Block 4
Target: CCND1, cyclin fold, Cln2 fusion (human)
Method: yeast growth competition, sequencing
Sample: yeast
Notes: strong parent motif
Baseline: not given
Reading: higher = stronger binding
Starting sequence: RBL1 docking peptide (human); GSAKRRLFGEDPP
Change | normalised enrichment score
G1H | 2.24
G1Y | 3.98
F8S | 0.358
G9I | 1.59
D11F | 0.532
L7G | 0.266
G9P | 3.12
K4E | 0.76
R5H | 0.622
K4P | 0.124
A3Y | -0.0327
P12D | 2.58
E10G | 0.9
K4I | 2.93
S2C | 2
P13R | 1.57
L7W | 0.384
G1R | 2.59
P13A | 1.3
F8M | 0.011
P12Q | 1.6
P12F | 1.75
G9K | 1.62
G9Q | 3
P12A | 2.05
